Measured values of several laboratories.
Protocols differ between the studies behind these lines. Values joined by “and” are separate records of one study, mostly repeats; a detail may differ.
Target: Serine/threonine-protein kinase 24 (STK24, Homo sapiens, UniProt Q9Y6E0)

SMILES = CCN1CCN(Cc2ccc(C(=O)Nc3ccc(C)c(NCc4cnc5[nH]ccc5c4OC)c3)cc2C(F)(F)F)CC1; test = binding, competition with immobilised ligand; setting = 1 µM; measurement = remaining binding; value = 87%
SMILES = CNC1C[S+]2CC[S+]3CC[S+](C1)[Ru-4]321([N]=C=S)[n]2c3ccc(OC)cc3c3c4c(c5cc(F)c[n+]1c5c32)C(=O)NC4=O (centres unmarked); test = KinomeScan; setting = 0.1 µM; how to read = baseline: untreated; measurement = remaining binding; value = 74%
SMILES = Cc1cnc2nc1Nc1cccc(c1)COC/C=C/COCc1cc(ccc1OCCN1CCOCC1)N2; setting = concentration not given, gene name MST3; measurement = percent of control; value = 100%
SMILES = Cc1cccc(O[C@H]2CCC[C@@H](C(C)CNCc3ccncc3)C2)c1 (relative stereo); test = kinase activity, kinome panel screening; setting = 10 µM; measurement = inhibition; value = -8%
SMILES = CS(=O)(=O)Nc1cccc(-c2csc3cnc(Nc4ccc(N5CCN(CCCCCOc6cccc7c6C(=O)N(C6CCC(=O)NC6=O)C7=O)CC5)cc4)nc23)c1 (centres unmarked); test = probe labelling, inhibitor, KiNativ chemoproteomics; system = MOLT-4; setting = 1 µM; measurement = inhibition; value = 20.1%
SMILES = N[C@H]1CC[C@H](Nc2nccc(-c3cccnc3Oc3ccc(NC(=O)NC4CC4)c4ccccc34)n2)CC1; test = kinobead competition pulldown; system = HEK293/HCT116 lysate mixture; setting = 10 µM, 1 h, 4 °C; how to read = lower = stronger competition; measurement = log2 LFQ intensity; value = 23.1 and 23.5 and 23.6 and 23.4
SMILES = COc1c(Cl)cccc1Nc1c(-c2ccncc2C#C[C@@]2(C)CCCN2C(=O)/C=C/CN(C)C)[nH]c2c1C(=O)NCC2; test = binding, competition with immobilised ligand; setting = 3 µM; measurement = remaining binding; value = 64%
SMILES = C=CC(=O)Nc1cccc(-c2cnc3[nH]cc(C(=O)NC(C)(C)C)c3n2)c1; test = enzyme activity, inhibitor; setting = 0.1 µM; measurement = inhibition; value = 32%
SMILES = Cc1ccc(C(=O)Nc2ccc(CN3CCN(C)CC3)c(C(F)(F)F)c2)cc1C#Cc1cnc2cccnn12; test = target engagement, NanoBRET; system = human cells; measurement = upper asymptote; value = 665
SMILES = O=C(Cc1ccc(OCc2ccccc2)cc1)NC1(C(=O)O)CCN(C(=O)c2ccc(-c3cccc(Cl)c3)cc2)CC1; test = enzyme activity, inhibitor; setting = 10 µM; measurement = activity vs control; value = 85%
SMILES = C=CC(=O)N1Cc2nc(-c3cc(-c4cc(Cl)cnc4Cl)c(F)cc3F)n(-c3ccncn3)c2C1; test = cell-free assay, inhibitor; setting = 1 µM; measurement = inhibition; value = 15.6%
SMILES = C=CC(=O)N1CCc2ccc(-n3c(=O)ccc4cnc5ccc(-c6cnn(C)c6)cc5c43)cc21; test = KINOMEscan; setting = 1 µM; how to read = baseline: DMSO control; measurement = remaining binding; value = 79%
SMILES = CN1CCN(Cc2ccc(-c3ccc(CO[C@H]4CCC[C@@H]4NC(=O)c4cc(-c5cnn(C)c5)cnc4N)cc3)cc2)CC1; test = enzyme activity, inhibitor; setting = 0.1 µM; measurement = inhibition; value = 13%
SMILES = NC(=O)[C@@H](O)C[C@H]1CCc2sc3ncnc(O[C@H]4CC[C@H](N5CCOCC5)CC4)c3c21; test = enzyme activity, inhibitor; setting = 10 µM; measurement = inhibition; value = 9%
SMILES = Nc1ncc2c(n1)-c1c([nH]c3ccc(C4=CCOCC4)cc13)CCC2; test = binding, competition with immobilised ligand; setting = 1 µM; measurement = remaining binding; value = 100%
SMILES = CCn1cc(C(=O)O)c(=O)c2c(N)c(F)c(NC3CCCCC3)cc21; test = kinase activity; setting = 0.1 µM, with: ATP at Km; measurement = inhibition; value = -7.1%
SMILES = Cc1ccc(-c2c(/C=C(\C#N)C(=O)NC(C)C)n(CCCO)c3ncnc(N)c23)cc1; test = cell-free assay, competition with immobilised ligand; setting = 1 µM; measurement = remaining binding; value = 81%

Some of these lines once more:
SMILES = Cc1cnc2nc1Nc1cccc(c1)COC/C=C/COCc1cc(ccc1OCCN1CCOCC1)N2; setting = concentration not given, gene name MST3; measurement = percent of control; value = 100%
SMILES = Cc1cccc(O[C@H]2CCC[C@@H](C(C)CNCc3ccncc3)C2)c1 (relative stereo); test = kinase activity, kinome panel screening; setting = 10 µM; measurement = inhibition; value = -8%
SMILES = CS(=O)(=O)Nc1cccc(-c2csc3cnc(Nc4ccc(N5CCN(CCCCCOc6cccc7c6C(=O)N(C6CCC(=O)NC6=O)C7=O)CC5)cc4)nc23)c1 (centres unmarked); test = probe labelling, inhibitor, KiNativ chemoproteomics; system = MOLT-4; setting = 1 µM; measurement = inhibition; value = 20.1%
